# Measured values collected from several papers.
# Each line is one published result; not all experiments were run side by side.
Compound,cell line,test,conditions,scale,measurement,value
CC(C)[C@H](NC(=O)c1ccc(CNc2nc3c(c(=O)[nH]2)CCC3)cc1)C(=O)NC1COC1,mouse osteoclast precursors,,"10 µM, 5 to 7 d, together with: M-CSF and RANKL",reference: control,osteoclast differentiation,22%
C#CCCCNCCNc1ccnc2cc(Cl)ccc12,HL-60,"cell growth or viability, resazurin","10 µM, 48 h",,inhibition,8.1%
C[C@H]1C(OCCCCCCCC[P+](c2ccccc2)(c2ccccc2)c2ccccc2)O[C@@H]2O[C@@]3(C)CCC4[C@H](C)CCC1[C@]42OO3 (stereo partly drawn),J82 and T24,"western blot, refers to: CDK4","concentration not given, 48 h",,protein level,decreased
COC1CC(=O)N(C)C=CCCCC(=O)N(C)C(C(C)C)C(=O)N(C)C(CC(C)C)C(=O)OC(C(C)C)CC(C)C1 (stereo not drawn),HCT-116,"RNA sequencing, refers to: idiopathic pulmonary fibrosis signalling","20 µM, 12 h",direction not given,pathway activation z-score,3
COC(=O)[C@H](CC(C)C)NC(=O)[C@@H]1CCCN1C(=O)[C@@H](NC(=O)[C@H](CCC(=O)C=[N+]=[N-])NC(=O)OCc1ccccc1)C(C)C,Q7 striatal cells,,"50 µM, 24 h",,citrate synthase activity increase,~50%
CCCc1cc(OC)c2c(c1)OCO2,HCT-116,cell growth or viability,72 h,,GI50,> 250 µM
CC/C=C\C/C=C\C/C=C\C/C=C\C/C=C\C/C=C\CCC(=O)Nc1ccn(C2OC(CO)C(O)C2(F)F)c(=O)n1 (stereo not drawn),UO-31,NCI60 screen,,,CC50,37.9 µM
O=C1/C(=C/c2ccc3c(c2)OCCO3)SC(=S)N1[C@@H]1O[C@H](CO)[C@@H](O)[C@H](O)[C@H]1O,HepG2,,"IC50, 48 h",reference: untreated,apoptotic cell death,65.6 fold
[N]#[Os]([Cl])([Cl])[Cl].c1cnc2c(c1)ccc1cccnc12,MRC-5 and A2780,cytotoxicity,,reference: MRC-5 over A2780 IC50,selectivity ratio,8 fold
CC[C@@]1(OC(=O)CCC(=O)NCCCC[C@H](NC(=O)[C@H](Cc2ccccc2)NC(=O)[C@H](Cc2ccccc2)NC(=O)CCSC2=C(/C=C/C3=[N+](C)c4ccccc4C3(C)C)CCC/C2=C\C=C2\N(C)c3ccccc3C2(C)C)C(=O)N[C@@H](CCCCNC(=O)CCCC[C@@H]2SC[C@@H]3NC(=O)N[C@@H]32)C(=O)O)C(=O)OCc2c1cc1n(c2=O)Cc2cc3ccccc3nc2-1,4T1,CCK-8,"5 µM, 4 h then 24 h, together with: 808 nm laser 1 W/cm2 5 min",reference: untreated,viability,32.5%
CC[C@H](C)[C@H](NC(=O)[C@@H](NC(=O)[C@@H](N)C(C)C)C(C)C)C(=O)NCC(N)=O,PC-12,"Aβ42-induced neurotoxicity, inhibitor, MTT","concentration not given, 6 h, 37 °C, peptide to Aβ42 1:2, together with: Aβ42 2 µM",reference: untreated cells,viability,88.5%
CC[C@H]1OC(=O)[C@H](C(C)C)NC(=O)[C@H](C)OC(=O)[C@@H](C(C)C)NC(=O)[C@@H](C(C)C)OC(=O)[C@H](C(C)C)NC(=O)[C@H](C)OC(=O)[C@@H](C(C)C)NC(=O)[C@@H](C(C)C)OC(=O)[C@H](C(C)C)NC(=O)[C@H](C)OC(=O)[C@@H](C(C)C)NC1=O,U-87 MG,"Western blot, refers to: ACO2","5 and 10 µM, 48 h",,protein level,no effect

# Repeated from above:
Compound,cell line,test,conditions,scale,measurement,value
CC(C)[C@H](NC(=O)c1ccc(CNc2nc3c(c(=O)[nH]2)CCC3)cc1)C(=O)NC1COC1,mouse osteoclast precursors,,"10 µM, 5 to 7 d, together with: M-CSF and RANKL",reference: control,osteoclast differentiation,22%
C#CCCCNCCNc1ccnc2cc(Cl)ccc12,HL-60,"cell growth or viability, resazurin","10 µM, 48 h",,inhibition,8.1%
